{"data": "Assay results of several laboratories", "note": "A part holds a random share of what one study measured. Several values in a cell are separate wells, animals, samples, runs or records."}
{"data": "Study 1", "SMILES": "CC(C)n1cnc(-c2ccc(F)cc2)c1-c1ncc(C(=O)Nc2ccc(N3CCN(C)CC3)cc2)[nH]1", "technique": "Phase 2a trial", "species": "human, idiopathic pulmonary fibrosis"}
{"refers to": "eosinophilia myalgia syndrome", "dose": "30 mg once daily", "setting": "grade 4", "patients with adverse event [%]": 0}
{"refers to": "respiratory, thoracic, mediastinal disorders", "dose": "60 mg once daily", "setting": "grade 5", "patients with adverse event [%]": 0}
{"refers to": "hypoalbuminaemia", "dose": "30 mg once daily", "setting": "grade 4", "patients with adverse event [%]": 0}
{"refers to": "blood pressure increased", "dose": "all compound arms total", "setting": "grade 5", "patients with adverse event [%]": 0}
{"refers to": "hypoalbuminaemia", "dose": "all compound arms total", "setting": "grade 5", "patients with adverse event [%]": 0}
{"refers to": "hyperlipidaemia", "dose": "30 mg once daily", "setting": "grade 2", "patients with adverse event [%]": 0}
{"data": "Study 2", "Structure (SMILES)": "CCOc1ccc(Nc2c3c(nc4ccccc24)CCC3)cc1", "organism": "Leishmania donovani", "strain": "DD8"}
{"read-out": "parasite killing", "medium": "promastigotes", "tested at": "33.33 µM", "time": "96 h", "inhibition": "100%"}
{"read-out": "parasite killing", "medium": "promastigotes", "tested at": "0.33 µM", "time": "96 h", "inhibition": "13% and 10% and 20%"}
{"read-out": "parasite killing", "medium": "intracellular amastigotes", "tested at": "0.8 µM", "time": "72 h", "inhibition": "53% and 57% and 58%"}
{"read-out": "parasite killing", "medium": "promastigotes", "tested at": "33.33 µM", "time": "48 h", "inhibition": "100%"}
{"read-out": "parasite viability", "technique": "resazurin", "medium": "promastigotes", "tested at": "0.66 µM", "inhibition": "8% and 10% and 20% and 25% and 24% and 4%"}
{"data": "Study 3", "target": "Phosphorylase b kinase gamma catalytic chain, skeletal muscle/heart isoform (PHKG1, Homo sapiens, UniProt Q16816)", "read-out": "enzyme activity", "mode": "inhibitor", "tested at": "0.5 µM", "reference": "control", "Target sequence (Q16816 1-387)": "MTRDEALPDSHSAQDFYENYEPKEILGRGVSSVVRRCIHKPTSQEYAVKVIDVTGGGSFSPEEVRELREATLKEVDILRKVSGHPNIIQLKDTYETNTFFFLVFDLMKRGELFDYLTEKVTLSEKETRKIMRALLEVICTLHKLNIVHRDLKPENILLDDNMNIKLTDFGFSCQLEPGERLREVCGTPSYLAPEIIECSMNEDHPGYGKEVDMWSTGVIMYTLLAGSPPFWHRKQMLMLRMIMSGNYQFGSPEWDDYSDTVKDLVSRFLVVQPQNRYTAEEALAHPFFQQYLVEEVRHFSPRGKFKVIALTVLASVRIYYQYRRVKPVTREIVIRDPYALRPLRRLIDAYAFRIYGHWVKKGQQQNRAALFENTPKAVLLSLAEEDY"}
{"Compound": "COc1ccc(COc2ccc(Cc3cnc(N)nc3N)cc2OC)cc1", "remaining activity [%]": 95.3}
{"Compound": "Oc1cccc(-c2nc(N3CCOCC3)c3oc4ncccc4c3n2)c1", "remaining activity [%]": 93.3}
{"Compound": "c1ccc2c(-c3ccncc3)c[nH]c2c1", "remaining activity [%]": 90.3}
{"Compound": "c1ccc(-c2n[nH]c3c2oc2ccccc23)cc1", "remaining activity [%]": 91.5}
{"Compound": "O=C1Nc2ccc(Br)cc2/C1=C/c1cc2c([nH]1)CCCC2", "remaining activity [%]": 60.2}
{"data": "Study 4", "species": "human", "medium": "microsomes or S9", "tested at": "2 µM", "time": "0.5 h"}
{"Compound": "Cc1nn(CC(C)C)c2sc(C(=O)N3CCN(CC(=O)NC4CC4)CC3)cc12", "remaining compound [%]": "> 100"}
{"Compound": "COc1cc(=O)n(C)cc1C(=O)NCCOc1ccc(F)cc1", "remaining compound [%]": "> 99"}
{"Compound": "CCc1c(C(=O)NCC(OC)C(C)(C)C)cnc2c1c(=O)n(C)c(=O)n2C (stereo not drawn)", "remaining compound [%]": 4.43}
{"Compound": "Cc1ccc(Nc2nc(Cl)nc(NC(C)C)n2)cc1", "remaining compound [%]": 1.18}
{"Compound": "COc1ccc(-c2coc3c(O)c(OC)ccc3c2=O)cc1", "remaining compound [%]": 81.5}
{"data": "Study 5", "organism": "Sarcocystis neurona", "read-out": "parasite growth", "tested at": "10 µM"}
{"SMILES": "CCN1CCC[C@H]1CNC(=O)c1c(O)c(Cl)cc(Cl)c1OC", "inhibition [%]": 3.8}
{"SMILES": "CCc1oc2ccccc2c1C(=O)c1cc(Br)c(O)c(Br)c1", "inhibition [%]": 2.9}
{"SMILES": "CC(=O)[C@@]1(O)CC[C@H]2[C@@H]3C[C@H](C)C4=CC(=O)C=C[C@]4(C)[C@@]3(F)[C@@H](O)C[C@@]21C", "inhibition [%]": -36.2}
{"SMILES": "CC1Cc2ccccc2N1NC(=O)c1ccc(Cl)c(S(N)(=O)=O)c1 (stereo not drawn)", "inhibition [%]": -35.9}
{"SMILES": "COc1ccc(/C=C/C(=O)Nc2ccccc2C(=O)O)cc1OC", "inhibition [%]": 49.1}
{"SMILES": "CN(C)C(=O)C(CCN1CCC(O)(c2ccc(Cl)cc2)CC1)(c1ccccc1)c1ccccc1", "inhibition [%]": 26.6}
{"data": "Study 6", "target": "Histamine H4 receptor (HRH4, Homo sapiens, UniProt Q9H3N8)", "read-out": "ligand displacement", "tested at": "10 µM", "UniProt Q9H3N8, sequence (whole entry, looked up)": "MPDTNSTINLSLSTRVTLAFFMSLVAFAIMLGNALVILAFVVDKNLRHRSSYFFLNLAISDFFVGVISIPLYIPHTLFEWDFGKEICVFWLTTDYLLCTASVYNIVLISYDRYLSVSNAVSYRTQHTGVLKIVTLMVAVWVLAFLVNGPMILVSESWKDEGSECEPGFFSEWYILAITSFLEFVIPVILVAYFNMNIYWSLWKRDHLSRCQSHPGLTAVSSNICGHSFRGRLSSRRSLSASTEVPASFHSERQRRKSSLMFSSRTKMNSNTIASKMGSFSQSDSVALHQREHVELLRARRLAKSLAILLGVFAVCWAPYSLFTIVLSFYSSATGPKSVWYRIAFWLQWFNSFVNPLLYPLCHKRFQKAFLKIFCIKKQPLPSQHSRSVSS"}
{"SMILES": "COc1cccc(NC(=O)c2nc3scc(CN(C)Cc4ccccc4)c3c(=O)[nH]2)c1", "inhibition": "21%"}
{"SMILES": "CCOc1ccc(S(=O)(=O)Nc2ccc(Cl)cc2C#Cc2cnc(C(=O)O)cc2OC)c2ncccc12", "inhibition": "-39.4%"}
{"SMILES": "CN1CCN(C(=O)C(C)(C)c2ccc(C(=O)Nc3cn4cc(-c5cc(C(C)(C)C)cc(C(C)(C)C)c5)ccc4n3)cc2)CC1", "inhibition": "31.9%"}
{"SMILES": "CS(=O)(=O)N1CCCC(NC(=O)[C@H](CCC2CCCCC2)NC(=O)c2ccc(CNC(=O)c3cnc4ccccn34)cc2)C1 (stereo partly drawn)", "inhibition": "-7.56%"}
{"SMILES": "CC(=O)N1CCC(c2ccc(C(=O)NC3=NCCN3)cc2C(F)(F)F)CC1", "inhibition": "9.81%"}
{"SMILES": "Cc1ccc(-c2cnc([C@@]3(O)CC[C@H](C(=O)O)C(C)(C)C3)s2)cc1Nc1cccc(C(F)(F)F)n1", "inhibition": "8.06%"}
{"SMILES": "c1ccc(N2CCN(Cc3nc4ccccc4[nH]3)CC2)nc1", "inhibition": "-3.28%"}
{"SMILES": "CN(C)c1ncnc(-c2ccc3nc(Nc4cc(CN5CCN(C(=O)CC(F)(F)F)CC5)ccn4)[nH]c3c2)c1Cl", "inhibition": "-2.29%"}
{"SMILES": "CN(C)C(=O)c1sc2nc(N3CCC(S(C)(=O)=O)CC3)cc(C(F)(F)F)c2c1N", "inhibition": "-16.7%"}
{"SMILES": "O=c1nc(-c2ccccn2)sc2ccccc12", "inhibition": "-0.975%"}
{"SMILES": "NC(=O)c1ccc2nc(-c3ccc(C4(N)CCC4)cc3)c(-c3ccccc3)n2n1", "inhibition": "-24.6%"}
{"SMILES": "CCC(F)(F)c1cc(N2CCC(S(C)(=O)=O)CC2)nc2sc(C(N)=O)c(N)c12", "inhibition": "-1.66%"}
{"SMILES": "CN([C@@H]1CCc2c(CC(=O)O)c3ccccc3n2C1)S(=O)(=O)c1ccc(F)cc1", "inhibition": "25.9%"}
{"SMILES": "COc1cc(-c2cn(C3CCc4c(F)cccc4N(CC(F)(F)F)C3=O)nn2)ccc1-n1cnc(C)c1 (stereo not drawn)", "inhibition": "-2.49%"}
{"SMILES": "C[C@H](c1ccc(F)cc1)N(Cc1cccc(C(=O)O)c1)C(=O)c1cnc2ccccc2c1", "inhibition": "-19.2%"}
{"SMILES": "CN1CCN(c2ccnc(NCCc3ccccc3)n2)CC1", "inhibition": "82.8%"}
{"SMILES": "NS(=O)(=O)c1cc(NC(=O)Cc2ccccc2)ccc1Oc1cccc(Cl)c1", "inhibition": "-3.13%"}
{"SMILES": "CC1=C(C#N)C(c2ccc3[nH]nc(C)c3c2)C(C#N)=C(C)N1", "inhibition": "-11.3%"}
{"SMILES": "Nc1nc(NCc2ccccc2)nc(-c2ccccc2CO)n1", "inhibition": "8.3%"}
{"SMILES": "N#CC1(c2ccccn2)CCN(Cc2cc(C(=O)N3CCCC3)c(=O)n3ccccc23)CC1", "inhibition": "-13.5%"}
{"SMILES": "O=C1NC(c2ccccn2)Sc2ccccc21 (stereo not drawn)", "inhibition": "1.89%"}
{"SMILES": "COCCOc1nc(-c2ccc(Cl)nc2)nc2c1CN(C(=O)c1ncn3ccccc13)CC2", "inhibition": "-6.39%"}
{"SMILES": "CC1CCN(c2ccnc(NCc3cn(C)cn3)n2)CC1", "inhibition": "-31.3%"}
{"SMILES": "COc1ccc2cc(OCC3(C(=O)O)CN(C(=O)c4ccc(F)cc4)C3)ccc2c1", "inhibition": "-17.7%"}
{"SMILES": "Nc1nc(NCc2ccccc2)nc(-c2cccc(CO)c2)n1", "inhibition": "10.8%"}
{"data": "Other studies, line by line", "cell line": "Gaucher fibroblasts L444P/L444P", "technique": "4-MUG hydrolysis, cell lysate"}
{"Compound": "Ic1ccc(Nc2nc(NCCN3CCOCC3)nc(N3CCOCC3)n2)cc1", "tested at": "5 µM", "reference": "DMSO", "GCase activity": "165% and 209% and 172%"}
{"Compound": "c1ccc2c(-c3nn4c(-c5ccncc5)nnc4s3)c[nH]c2c1", "tested at": "0.5 µM", "time": "72 h", "together with": "ISRIB", "reference": "vehicle", "GCase activity": "208% and 198% and 186% and 188% and 201% and 187%"}
{"note": "A few entries again (study 1):"}
{"refers to": "blood pressure increased", "dose": "all compound arms total", "setting": "grade 5", "patients with adverse event [%]": 0}
{"refers to": "hyperlipidaemia", "dose": "30 mg once daily", "setting": "grade 2", "patients with adverse event [%]": 0}
{"refers to": "hypoalbuminaemia", "dose": "30 mg once daily", "setting": "grade 4", "patients with adverse event [%]": 0}
